Experimental data collected from several papers.
Every numbered part comes from another study and shows a few of its results, in no order.

Study 1 — method: RNA Bind-n-Seq; molecule type: RNA; matrix: in vitro; tested at: 365 nM; baseline: no-protein control; reading: higher = stronger binding; quantity: RBNS enrichment (R)
Target: RNA binding protein fox-1 homolog 2, RRM domain, GST-SBP tag (RBFOX2, Homo sapiens, UniProt O43251-10, residues 100-194)
Notes: natural RNA segment, single round, ends assumed
Construct (chain): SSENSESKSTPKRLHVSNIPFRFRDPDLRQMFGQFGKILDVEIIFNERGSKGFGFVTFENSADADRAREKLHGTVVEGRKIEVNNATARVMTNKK
GGGAGUUCUACAGUCCGACGAUCGGUCAUAGUGUAUAAGUAGCUUCCUAGGAAACCCUUUGUGUAUCUUUUCAGACUGGGGUGGGGGCUGAGCAUGCUUGUGCAGAAAGAAGCCAUAGCCAGAAAGGACAGAAUGGAAUUCUCGGGUGCCAA: 3.69
GGGAGUUCUACAGUCCGACGAUCCUGGUUUCUAAGAGUUUUGGGGGGCGGGGCUGUCACCACGUGCAGUAUCUCAAGAUAUUCAGGUGGCCAGAAGAGCUUGUCAGCAAGAGGAGGACAGAAUUCUCCCAGCGUGGAAUUCUCGGGUGCCAA: 0.349
GGGAGUUCUACAGUCCGACGAUCAGGGUAGAACCUGGAACCACAGUUGUUGCUGACCUGCUGGAAUGAAGUCAGAGUAUCAUCUAAAGUUAAGUAGACCCAAGCAAGACAGGGUCUUAAGGCCUGGGUUUAAGUGGAAUUCUCGGGUGCCAA: 6.5
GGGAGUUCUACAGUCCGACGAUCAAAAACUGCAGUCAUCAACAAUGAUUAAUCAGCUGUUGCAGGCAGUGUCUUAAGGAGACUGGUAGGAGGAGGCAUGGAAACCAAAAGGCCGUGUGUUUAGAAGCCUAAUUUGGAAUUCUCGGGUGCCAA: 1

Study 2 — method: protein binding microarray; molecule type: double-stranded DNA, one strand shown; matrix: in vitro; tested at: not given; baseline: not given; reading: higher = stronger binding; quantity: E-score
Target: Histone acetyltransferase KAT6A, winged helix 2, GST fusion (KAT6A, Homo sapiens, UniProt Q92794, residues 85-181)
Notes: 8-mer, flanks averaged, mean of 2 arrays, mostly near background
Construct (chain): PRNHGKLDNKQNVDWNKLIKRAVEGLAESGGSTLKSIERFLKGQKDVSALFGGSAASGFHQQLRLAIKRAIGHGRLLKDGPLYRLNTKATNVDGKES
CAAGAAGC: 0.116
AATAGGAT: -0.0473
GGTCGGGA: 0.206
AAATGCGC: 0.18

Study 3 — method: protein-binding microarray; molecule type: double-stranded DNA, one strand shown; matrix: in vitro; tested at: 940 nM top; notes: 60-bp whole probe; added: salmon DNA 0.4 mg/ml; baseline: random background probes; reading: higher = stronger binding; quantity: fitted relative affinity
Target: Interferon regulatory factor 5, full length, phosphomimetic (IRF5, Homo sapiens, UniProt Q13568-2, residues 1-514, S451D/S453D/S456D/S462D)
GCCTAGCACGACGGACTGCGGTTTCGGGACGTGCTAGTCTTGATTCGCTTGACGCTGCTG: 1.92 z-score
GCCTAGCACGACAGTATCGGGTTTCGGGACGTGCTAGTCTTGATTCGCTTGACGCTGCTG: 5.68 z-score
GCCTAGCACAGATATTCAGGTATATAAAGGTGCTAGGTCTTGATTCGCTTGACGCTGCTG: -0.0092 z-score
GCCTAGCACTTGGGTATCGACTTTCGGTTAGTGCTAGTCTTGATTCGCTTGACGCTGCTG: 5.69 z-score

Further values, each from its own experiment
PhoQ, residues 284 288 289 292 302 303 AGGCYF
fold induction (PhoP, residues 12 14 15 18 19 DLLYY (Escherichia coli, UniProt P23836); Sort-seq, measured: YFP reporter; E. coli; PhoQ-PhoP variant library, added: 10 µM Mg2+; baseline: high Mg2+ state, higher = stronger signaling): 2.74

Repeated from above (study 1):
GGGAGUUCUACAGUCCGACGAUCAGGGUAGAACCUGGAACCACAGUUGUUGCUGACCUGCUGGAAUGAAGUCAGAGUAUCAUCUAAAGUUAAGUAGACCCAAGCAAGACAGGGUCUUAAGGCCUGGGUUUAAGUGGAAUUCUCGGGUGCCAA: 6.5
